Experimental data pooled from the literature.
Each line is one published result; not all experiments were run side by side. ± gives the spread as reported.

| Compound | test | system | setting | AUC(0-inf) |
| --- | --- | --- | --- | --- |
| NCCCS(=O)(=O)O |  | human, plasma | oral, 100 mg modified-release tablet, single dose | 2040 ± 712 ng·h/mL |
| CC(C)(C)OC[C@@H]1C(=O)NCCN1C(=O)C[C@H](N)Cc1cc(F)c(F)cc1F |  | human | 10 mg once daily, steady state, day 10 | 354 ± 55 ng·h/mL |
| COc1cc2ncnc(Nc3ccc(F)c(Cl)c3)c2cc1OCCCN1CCOCC1 |  | human, plasma | oral, 250 mg, added: vorinostat 200 mg | 8.67 ± 3.06 ng·h/mL |
| C=CC(=O)N1CCC([C@@H]2CCNc3c(C(N)=O)c(-c4ccc(Oc5ccccc5)cc4)nn32)CC1 |  | human | oral, 160 mg, single dose, mean | 1230 ng·h/mL |
| CO[C@H]1C[C@@H]2CC[C@@H](C)[C@@](O)(O2)C(=O)C(=O)N2CCCC[C@H]2C(=O)O[C@H]([C@H](C)C[C@@H]2CC[C@@H](OCCO)[C@H](OC)C2)CC(=O)[C@H](C)/C=C(\C)[C@@H](O)[C@@H](OC)C(=O)[C@H](C)C[C@H](C)/C=C/C=C/C=C/1C |  | healthy adult human, blood | 0.75 mg single dose, geometric mean, added: ritonavir-containing 3D regimen | 1130 ng·h/mL |
| NC1(c2ccc(-c3nc4ccn5c(=O)[nH]nc5c4cc3-c3ccccc3)cc2)CCC1 |  | human patients, plasma | oral, 135 mg, alone, expansion | 13400 ± 3720 ng·h/mL |
| Cl.NCCc1c[nH]c(=S)n1[C@H]1COc2c(F)cc(F)cc2C1 |  | human male, fasted, plasma | oral, 200 mg single dose, arithmetic mean | 2240 ng·h/mL |
| CC(C)[C@](O)(c1ccc2cc(OC(F)F)c(OC(F)F)cc2c1)c1c[nH]nn1 |  | human patients, male, plasma | oral, 750 mg, cycle 1 day 1, first dose | 44200 ± 2150 ng·h/mL |
| CC(C)NC[C@@H](C(=O)N1CCN(c2ncnc3c2[C@H](C)C[C@H]3O)CC1)c1ccc(Cl)cc1 |  | human, severe hepatic impairment (Child-Pugh), plasma | oral, 100 mg single dose, geometric mean | 920 ng·h/mL |
| CCOc1cc([C@@H](CS(C)(=O)=O)N2C(=O)c3cccc(NC(C)=O)c3C2=O)ccc1OC |  | healthy human, both sexes, plasma | oral, 30 mg single dose, without rifampicin | 3120 ng·h/mL |
| CN(Cc1cnc2nc(N)nc(N)c2n1)c1ccc(C(=O)N[C@@H](CCC(=O)O)C(=O)O)cc1 |  | human, plasma | oral, 12.5 mg, day 1, alone | 2360 ng·h/mL |
| CCN(CC)CCNC(=O)c1c(C)[nH]c(/C=C2\C(=O)Nc3ccc(F)cc32)c1C |  | human, normal hepatic function (Child-Pugh), plasma | single dose, geometric mean, total drug | 1370 ng·h/mL |
| C[C@@H](Oc1cc(-c2cnn(C3CCNCC3)c2)cnc1N)c1c(Cl)ccc(F)c1Cl |  | healthy human, plasma | oral, 250 mg single fasted, arithmetic mean | 2620 ± 1090 ng·h/mL |
| CCCC[C@H](NC(C)=O)C(=O)N[C@H]1CCC(=O)NC[C@@H](C(=O)N[C@@H](Cc2c[nH]c3ccccc23)C(N)=O)NC(=O)[C@H](CCCNC(=N)N)NC(=O)[C@@H](Cc2ccccc2)NC(=O)[C@H](Cc2c[nH]cn2)NC1=O |  | healthy human, both sexes, plasma | subcutaneous, 1.0 mg once daily, day 1, geometric mean | 50.9 ng·h/mL |
| CC(C)[C@@H](CS(=O)(=O)C(C)C)N1C(=O)[C@@](C)(CC(=O)O)C[C@H](c2cccc(Cl)c2)[C@H]1c1ccc(Cl)cc1 |  | human, plasma | oral, 60 mg, old tablet, fasted, geometric LS mean | 2520 ng·h/mL |
| NS(=O)(=O)OC[C@@H]1C[C@@H](n2ccc3c(N[C@H]4CCc5ccccc54)ncnc32)C[C@@H]1O |  | human | intravenous, 15 mg/m^2 single dose, day 8, added: itraconazole | 1060 ng·h/mL |
| CCCc1nn(C)c2c(=O)[nH]c(-c3cc(S(=O)(=O)N4CCN(C)CC4)ccc3OCC)nc12 |  | human, male, plasma | oral, dose not given, day 8, added: sacubitril/valsartan | 576 ng·h/mL |
| CO[C@H]1C[C@@H]2CC[C@@H](C)[C@@](O)(O2)C(=O)C(=O)N2CCCC[C@H]2C(=O)O[C@H]([C@H](C)C[C@@H]2CC[C@@H](O)[C@H](OC)C2)CC(=O)[C@H](C)/C=C(\C)[C@@H](O)[C@@H](OC)C(=O)[C@H](C)C[C@H](C)/C=C/C=C/C=C/1C |  | human, whole blood | oral, 20 mg, without grapefruit juice | 863 ng·h/mL |
| Cc1ccc(NC(=O)c2ccc(CN3CCN(C)CC3)cc2)cc1Nc1nccc(-c2cncc(-c3oncc3C)c2)n1 |  | older healthy human adults, plasma | oral, 75.0 mg single dose, fed, mean | 60100 ng·h/mL |
| CC(C)(/C=C(\C#N)C(=O)N1CCC[C@@H](n2nc(-c3ccc(Oc4ccccc4)cc3F)c3c(N)ncnc32)C1)N1CCN(C2COC2)CC1 |  | human, plasma | oral, 100 mg single dose, median | 51 ng·h/mL |
| Cc1cc(C)c2c(c1)[C@@H](N(Cc1cc(C(F)(F)F)cc(C(F)(F)F)c1)c1nnn(C)n1)CCCN2C[C@H]1CC[C@H](C(=O)O)CC1 |  | healthy humans, plasma | oral, 100 mg, geometric mean, added: ketoconazole 400 mg | 12100 ng·h/mL |
| O=C(/C=C/c1cccc(S(=O)(=O)Nc2ccccc2)c1)NO |  | human moderate liver dysfunction, plasma | intravenous, 400 mg/m^2, 30 min infusion, cycle 1 day -7 | 13900 ng·h/mL |

| Compound | test | system | setting | AUC(0-inf) |
| --- | --- | --- | --- | --- |
| CCN1CCN(Cc2ccc(Nc3ncc(F)c(-c4cc(F)c5nc(C)n(C(C)C)c5c4)n3)nc2)CC1 | population PK model | healthy human subjects, plasma | oral, 200 mg single dose | 3890 ng·h/mL |
| CN(Cc1nc2c(N)nc(N)nc2[nH]c1=O)c1ccc(C(=O)N[C@@H](CCC(=O)O)C(=O)O)cc1 |  | human, plasma | oral, 20 mg methotrexate, day 1, alone, arithmetic mean | 1980 ng·h/mL |
| N[C@@H](Cc1ccc(O)c(O)c1)C(=O)O |  | human, plasma | oral, 150 mg single, geometric LS mean, added: 37.5 mg carbidopa | 3870 ng·h/mL |
| C=CC[C@@H]1/C=C(\C)C[C@H](C)C[C@H](OC)[C@H]2O[C@@](O)(C(=O)C(=O)N3CCCC[C@H]3C(=O)O[C@H](/C(C)=C/[C@@H]3CC[C@@H](O)[C@H](OC)C3)[C@H](C)[C@@H](O)CC1=O)[C@H](C)C[C@@H]2OC |  | healthy human subjects, whole blood | oral, 5 mg single dose, arithmetic mean, added: isavuconazole 200 mg once daily after loading | 695 ng·h/mL |
| CNC(=O)c1c(C)oc2cc(Oc3ncnc4cc(OC)c(OC)cc34)ccc12 |  | human, plasma | oral, 5 mg, fed, high-fat meal | 5290 ng·h/mL |
| CC(C)c1nc(N(C)S(C)(=O)=O)nc(-c2ccc(F)cc2)c1/C=C/[C@@H](O)C[C@@H](O)CC(=O)O |  | humans, plasma | oral, 20 mg, geometric mean, added: fenebrutinib 200 mg twice daily | 228 ng·h/mL |
| C=C(C)[C@@H]1CC[C@]2(NCCN3CCS(=O)(=O)CC3)CC[C@]3(C)[C@H](CC[C@@H]4[C@@]5(C)CC=C(C6=CC[C@@](CF)(C(=O)O)CC6)C(C)(C)[C@@H]5CC[C@]43C)[C@@H]12 |  | healthy human volunteers, plasma | oral, 200 mg, tablet, fasted state, geometric mean | 13500 ng·h/mL |
| CCCCc1nc2cc(/C=C/C(=O)NO)ccc2n1CCN(CC)CC | LC-MS/MS | human, plasma | oral, 40 mg, day 1 | 434 ± 191 ng·h/mL |
| CNC(=O)c1ccc(-c2cnc3ncc(Cc4ccc5ncccc5c4)n3n2)cc1F |  | healthy human subjects, plasma | oral, 200 mg, adjusted geometric mean, alone | 5180 ng·h/mL |
| C=CC(=O)N1CCC(CNc2ncnc(N)c2-c2ccc(Oc3ccccc3)cc2)CC1 |  | human, plasma | 50 mg, single dose, geometric mean | 326 ng·h/mL |
| CCn1c(=O)c2c(nc(/C=C/c3ccc(OC)c(OC)c3)n2C)n(CC)c1=O |  | healthy human, plasma | oral, 40 mg single dose, arithmetic mean, added: rifampin 600 mg/day steady state | 2100 ng·h/mL |
| Cc1c(Cl)c(C)[n+]([O-])c(Cl)c1-c1noc(-c2cc(O)c(O)c([N+](=O)[O-])c2)n1 | LC-MS/MS | healthy male human, fasted, plasma | oral, 25 mg single dose, capsule | 2150 ± 617 ng·h/mL |
| CN(C)Cc1c(C(=O)NCCOc2ccc(C(=O)NO)cc2)oc2ccccc12 |  | human, plasma | oral, 40 mg single dose | 171 ± 12.7 ng·h/mL |
| COc1cc(Nc2ncc3c(n2)-c2ccc(Cl)cc2C(c2c(F)cccc2OC)=NC3)ccc1C(=O)O |  | human, plasma | oral, 50 mg single, fed | 24.9 µM·h |
| Cc1ccc(NC(=O)c2ccc(CN3CCNCC3)cc2)cc1Nc1nccc(-c2cccnc2)n1 |  | human patients, plasma | oral, 400 mg/day of imatinib, day 10 of cycle 1 | 23800 ng·h/mL |
| CC(=O)O[C@H]1C(=O)[C@@]2(C)[C@H]([C@H](OC(=O)c3ccccc3)[C@]3(O)C[C@H](OC(=O)[C@H](O)[C@@H](NC(=O)c4ccccc4)c4ccccc4)C(C)=C1C3(C)C)[C@]1(OC(C)=O)CO[C@@H]1C[C@@H]2O |  | human patients on multiple protease inhibitors, plasma | iv, 100 mg/m^2 over 3 h, cycle 1 | 5 ± 2.4 µM·h |
| CCc1nc(C(N)=O)c(Nc2ccc(N3CCC(N4CCN(C)CC4)CC3)c(OC)c2)nc1NC1CCOCC1 |  | human, moderate hepatic impairment, plasma | oral, 10 mg, single dose, fasted, geometric LS mean | 337 ng·h/mL |
| CCCS(=O)(=O)N[C@H]1C[C@@H](N(C)c2ncnc3[nH]ccc23)C1 |  | humans, normal hepatic function | oral, 200 mg single | 5590 ng·h/mL |
| O=c1[nH]c(=O)c(Cc2cccc(C(F)(F)F)c2)c([C@H]2CC[C@H](c3ccccc3)CC2)[nH]1 |  | human, fasted, plasma | oral, 300 mg single dose, geometric mean | 3080 ng·h/mL |
| O=C(CCCCCCC(=O)Nc1ccccc1)NO | LC-MS/MS | human, serum | oral, 200 mg, day 1, first dose mean | 779 ng·h/mL |
| C=CC(=O)Nc1cc(Nc2ncc(C(=O)OC(C)C)c(-c3cn(C)c4ccccc34)n2)c(OC)cc1N(C)CCN(C)C |  | human, fasted | oral, 160 mg single dose, arithmetic mean | 1110 ng·h/mL |
| CC(C)C[C@H](NC(=O)[C@H](CCc1ccccc1)NC(=O)CN1CCOCC1)C(=O)N[C@@H](Cc1ccccc1)C(=O)N[C@@H](CC(C)C)C(=O)[C@@]1(C)CO1 |  | human patients, plasma | intravenous infusion 10 min, 27 mg/m^2, day 16 of cycle 1, KRd regimen | 445 ± 55.7 ng·h/mL |

Some of these lines once more:
| Compound | test | system | setting | AUC(0-inf) |
| --- | --- | --- | --- | --- |
| C[C@@H](Oc1cc(-c2cnn(C3CCNCC3)c2)cnc1N)c1c(Cl)ccc(F)c1Cl |  | healthy human, plasma | oral, 250 mg single fasted, arithmetic mean | 2620 ± 1090 ng·h/mL |
| CCCC[C@H](NC(C)=O)C(=O)N[C@H]1CCC(=O)NC[C@@H](C(=O)N[C@@H](Cc2c[nH]c3ccccc23)C(N)=O)NC(=O)[C@H](CCCNC(=N)N)NC(=O)[C@@H](Cc2ccccc2)NC(=O)[C@H](Cc2c[nH]cn2)NC1=O |  | healthy human, both sexes, plasma | subcutaneous, 1.0 mg once daily, day 1, geometric mean | 50.9 ng·h/mL |
| CC(C)[C@@H](CS(=O)(=O)C(C)C)N1C(=O)[C@@](C)(CC(=O)O)C[C@H](c2cccc(Cl)c2)[C@H]1c1ccc(Cl)cc1 |  | human, plasma | oral, 60 mg, old tablet, fasted, geometric LS mean | 2520 ng·h/mL |
| NS(=O)(=O)OC[C@@H]1C[C@@H](n2ccc3c(N[C@H]4CCc5ccccc54)ncnc32)C[C@@H]1O |  | human | intravenous, 15 mg/m^2 single dose, day 8, added: itraconazole | 1060 ng·h/mL |
| CCCc1nn(C)c2c(=O)[nH]c(-c3cc(S(=O)(=O)N4CCN(C)CC4)ccc3OCC)nc12 |  | human, male, plasma | oral, dose not given, day 8, added: sacubitril/valsartan | 576 ng·h/mL |
| CO[C@H]1C[C@@H]2CC[C@@H](C)[C@@](O)(O2)C(=O)C(=O)N2CCCC[C@H]2C(=O)O[C@H]([C@H](C)C[C@@H]2CC[C@@H](O)[C@H](OC)C2)CC(=O)[C@H](C)/C=C(\C)[C@@H](O)[C@@H](OC)C(=O)[C@H](C)C[C@H](C)/C=C/C=C/C=C/1C |  | human, whole blood | oral, 20 mg, without grapefruit juice | 863 ng·h/mL |
